Published values collected from several papers.
Parts stem from different laboratories: compare values within a part only. Positions count from the first letter of the parent shown.

Set 1
Target: TAR DNA-binding protein 43, full length, His tag (TARDBP, Homo sapiens, UniProt Q13148, residues 1-414)
Method: RNA Bind-n-Seq
Form: RNA
Medium: in vitro
Tested at: 20 nM
Setting: 6-mer, flanks averaged, single round
With: 150 mM KCl
Baseline: input library
Direction: higher = stronger binding
Quantity: 6-mer enrichment (R)
GGGACA: 2.2
GGAGUC: 1.37
CUCGAC: 0.604
GGAUCG: 1.56
CGAGCC: 0.814
CACACA: 0.674
ACGUCA: 0.633
ACGAUC: 0.589
UAACUC: 0.588
GCCAAU: 0.725
UCAUAG: 0.626
UCGCAC: 0.648
CACCUG: 0.663
GGGGGU: 7.61
AGGAUC: 0.739
GUACAC: 0.707
GGGCUC: 1.86
AAUGCU: 0.665
GGGUAG: 4.09

Set 2
Target: Interferon regulatory factor 7, full length, phosphomimetic (IRF7, Homo sapiens, UniProt Q92985, residues 1-503, S101K/S471D/S472D/S475D/S476D/S477D/S483D/S484D/S487D)
Method: protein-binding microarray
Form: double-stranded DNA, one strand shown
Medium: in vitro
Tested at: 250 nM
Setting: 60-bp whole probe
With: salmon DNA 0.4 mg/ml
Baseline: random background probes
Direction: higher = stronger binding
Quantity: log fluorescence
Constant ends, left off below: GCCTAGCAC … GTCTTGATTCGCTTGACGCTGCTG
Construct (chain): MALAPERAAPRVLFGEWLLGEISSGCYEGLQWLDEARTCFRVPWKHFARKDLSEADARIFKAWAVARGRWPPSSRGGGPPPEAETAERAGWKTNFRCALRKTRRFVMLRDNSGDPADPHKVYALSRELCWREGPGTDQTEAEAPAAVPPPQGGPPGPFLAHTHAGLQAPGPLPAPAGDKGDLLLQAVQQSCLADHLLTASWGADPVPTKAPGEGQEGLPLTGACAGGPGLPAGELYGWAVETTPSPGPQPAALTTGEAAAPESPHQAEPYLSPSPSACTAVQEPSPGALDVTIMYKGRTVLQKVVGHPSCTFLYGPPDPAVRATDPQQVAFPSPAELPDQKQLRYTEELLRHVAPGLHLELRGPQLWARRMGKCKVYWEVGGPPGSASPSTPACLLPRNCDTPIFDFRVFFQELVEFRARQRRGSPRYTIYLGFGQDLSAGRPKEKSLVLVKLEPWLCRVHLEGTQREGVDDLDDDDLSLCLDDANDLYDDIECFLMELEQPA
TTATGTATCGGTATCGGTTAGTGCTAG: 1.43 z-score
GTAAGCAAAAATGATTGGTTGTGCTAG: -0.0249 z-score
TCTGTTTTTGCTTTCCTTTAGTGCTAG: 2.37 z-score
TTAGATTTCGGGTAGCGATTAGTGCTA: 0.524 z-score
TCAGTTTCCATTTTCTGACTGTGCTAG: 8.36 z-score
TTAGGTCTCCTTCTCGTTTAGTGCTAG: 0.698 z-score
TTAGATCTCAGACTGGATTGGTGCTAG: -0.282 z-score
TTAGCACTGGACTATCGGTTAGTGCTA: -0.66 z-score
CAAACAGAGACCCGGCAAGTGTGCTAG: 0.332 z-score
ACAAGTTTCTCCTTTCCAAAGTGCTAG: 3.56 z-score
TCACATCTCTGTCCGTGACTGTGCTAG: 0.566 z-score
TTAGATTCCAGTATCGATTAGTGCTAG: 2.01 z-score
TCAGGACTGGGTTTCGGTTAGTGCTAG: 6.62 z-score

Set 3
Target: Histone acetyltransferase KAT6A, winged helix 1, GST fusion (KAT6A, Homo sapiens, UniProt Q92794, residues 1-85)
Method: protein binding microarray
Form: double-stranded DNA, one strand shown
Medium: in vitro
Tested at: not given
Setting: 8-mer, flanks averaged, mean of 2 arrays, mostly near background
Baseline: not given
Direction: higher = stronger binding
Quantity: E-score
Target sequence (chain): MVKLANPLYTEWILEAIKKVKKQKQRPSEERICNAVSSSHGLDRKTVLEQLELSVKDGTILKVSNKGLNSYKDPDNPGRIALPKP
CAAAGATC: -0.145
ATATTGGC: -0.128
GGAGCGAA: -0.0955
CACCTTTC: -0.0708
CAACGAAC: -0.126
GGAACTAC: -0.0243
GCAAATTA: -0.134
AAAACACT: 0.0388
AATTGGAA: -0.126
CTCGTATA: -0.08
TCTAGGAA: -0.253
ACAATACT: -0.225
ACCCTAGG: -0.237
CGTGCGAA: 0.214
AAGGTATC: -0.166
GCACCCGA: 0.189
AAGATAAC: -0.0431
AACCTACT: -0.144
CGGGCAGC: 0.278
CAGATCAC: 0.0166
ATCACTAG: -0.0889
CGATCTCA: -0.0233
AATGATAG: 0.0675
TCCGAGGA: -0.106
CCATTGCA: -0.15

Set 4
Target: ABI1, truncated, D143A, DHFR fusion (Arabidopsis thaliana)
Method: DHFR PCA, deep sequencing
Medium: yeast
Setting: methotrexate growth selection, single substitutions
With: (+)-ABA 200 µM
Baseline: wild-type fitted maximum
Direction: higher = stronger binding
Quantity: relative binding score
Starting sequence: PYL1, truncated, DHFR fusion (Arabidopsis thaliana); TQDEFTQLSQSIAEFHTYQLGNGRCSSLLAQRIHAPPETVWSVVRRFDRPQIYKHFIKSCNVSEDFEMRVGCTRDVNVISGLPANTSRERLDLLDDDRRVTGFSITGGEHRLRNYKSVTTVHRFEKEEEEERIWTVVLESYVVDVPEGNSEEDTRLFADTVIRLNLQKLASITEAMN
R123A: 107%
V100Q: 63.1%
S27F: 35.1%
F15R: 65.4%
G21M: 102%
Q19R: 100%
S140G: 24.9%
V161S: 1.29%
E131F: 99.6%
Y141T: -5.57%
T135R: -5.23%
Q2K: 104%
S11W: 95.6%
S171G: 93.4%

Excerpt of the above (set 3):
AATTGGAA: -0.126
CTCGTATA: -0.08
TCTAGGAA: -0.253
ACAATACT: -0.225
ACCCTAGG: -0.237
CGTGCGAA: 0.214
AAGGTATC: -0.166
GCACCCGA: 0.189
AAGATAAC: -0.0431
AACCTACT: -0.144
CGGGCAGC: 0.278
